# Results pooled from the literature.
# Each numbered part is a random draw from the data of one study; scales do not carry over between parts. Positions count from the first letter of the parent shown.

# Set 1
# Target: CCNA2, cyclin fold, Cln2 fusion (human)
# Method: yeast growth competition, sequencing
# Medium: yeast
# Notes: strong parent motif
# Baseline: not given
# Direction: higher = stronger binding
# Starting sequence: PKMYT1 docking peptide (human); SFEPRNLLSLFED
Substitution,normalised enrichment score
SFEPKNLLSLFED [R5K],2.52
SFEPRNLLSLVED [F11V],-0.287
SFEPRNMLSLFED [L7M],-0.894
SFEPRNLKSLFED [L8K],0.00422
KFEPRNLLSLFED [S1K],3.41
PFEPRNLLSLFED [S1P],3.28
SFEPRNLLSLFND [E12N],3.16
SFEPRNLLSSFED [L10S],1.74
SCEPRNLLSLFED [F2C],1.56
SFENRNLLSLFED [P4N],-0.799
SFEPRNLLSLFRD [E12R],2.14
SFEPRNLLSLFEW [D13W],1.18
SFEPRNLESLFED [L8E],-2.14
SFMPRNLLSLFED [E3M],3.96
SFEPRNLLSLFHD [E12H],2.07
SFEYRNLLSLFED [P4Y],-1.65
SFEPRLLLSLFED [N6L],-1.16

# Set 2
# Target: ABI1, truncated, D143A, DHFR fusion (Arabidopsis thaliana)
# Method: DHFR PCA, deep sequencing
# Medium: yeast
# Notes: methotrexate growth selection, single substitutions
# Added: (+)-ABA 4.8 µM
# Baseline: wild-type fitted maximum
# Direction: higher = stronger binding
# Starting sequence: PYL1, truncated, DHFR fusion (Arabidopsis thaliana); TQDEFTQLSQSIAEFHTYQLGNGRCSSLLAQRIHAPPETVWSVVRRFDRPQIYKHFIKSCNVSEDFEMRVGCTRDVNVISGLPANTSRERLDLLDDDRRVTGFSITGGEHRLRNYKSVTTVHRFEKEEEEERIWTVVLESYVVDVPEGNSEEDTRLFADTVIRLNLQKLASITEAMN; partner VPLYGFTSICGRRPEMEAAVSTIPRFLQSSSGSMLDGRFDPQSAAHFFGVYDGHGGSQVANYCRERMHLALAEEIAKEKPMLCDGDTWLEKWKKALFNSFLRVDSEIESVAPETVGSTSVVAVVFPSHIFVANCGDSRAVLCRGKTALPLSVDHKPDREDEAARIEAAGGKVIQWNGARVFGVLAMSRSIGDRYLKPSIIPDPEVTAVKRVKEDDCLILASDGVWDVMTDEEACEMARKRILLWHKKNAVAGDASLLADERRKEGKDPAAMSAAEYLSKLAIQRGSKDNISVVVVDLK
Substitution,relative binding score [%]
T160H,40.8
Y141Q,-1.97
S80A,4.75
N22H,78.5
D97E,82.7
S11N,53.3
E174W,-4.67
G71C,-6.85
V62M,55.8
S87F,12.3
I79E,29.8
R46K,49.2
D3E,71.2
V76Q,1.86

# Set 3
# Target: Histone acetyltransferase KAT6A, winged helix 1, GST fusion (KAT6A, Homo sapiens, UniProt Q92794, residues 1-85)
# Method: protein binding microarray
# Molecule type: double-stranded DNA, one strand shown
# Medium: in vitro
# Concentration: not given
# Notes: 8-mer, flanks averaged, mean of 2 arrays, mostly near background
# Baseline: not given
# Direction: higher = stronger binding
# Construct (chain): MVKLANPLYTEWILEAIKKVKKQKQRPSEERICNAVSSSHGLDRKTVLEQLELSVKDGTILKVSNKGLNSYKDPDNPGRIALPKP
Strand,E-score
GGGGCAGA,-0.121
CCGCGGAG,0.365
CAGTAGTC,-0.0851
AACAATTA,-0.0317
GTATGCTA,0.0428
ATCTCTAC,-0.171
ACGCCTCT,-0.0469
CCGTTAGA,0.204
ACCGCCTG,0.175
GCTTCAGA,-0.219
CGCCTCAG,0.21
CGAAGTCC,0.139
ATGAGCGC,0.275
CCCCCGCG,0.411
ATTGCTTA,-0.168
GCGCTACA,0.263
AATAGTGG,-0.144
CTGTGGAC,-0.205
ATGGCTCA,-0.295
GGGGATCA,-0.0706
AGCTTATA,-0.166
CAGCCATG,-0.142
CCAAGATA,-0.232

# Other studies, line by line
Substance,target,assay,system,conditions,how to read,measurement,result
"PhoQ, residues 284 288 289 292 302 303 ASTSDA","PhoP, residues 12 14 15 18 19 NMSFL (Escherichia coli, UniProt P23836)","Sort-seq, refers to: YFP reporter",E. coli,"PhoQ-PhoP variant library, added: 10 µM Mg2+","baseline: high Mg2+ state, higher = stronger signaling",fold induction,16.6

# Some of these lines once more (set 3):
Strand,E-score
ACGCCTCT,-0.0469
CCGTTAGA,0.204
ACCGCCTG,0.175
